Measurements collected from several papers.
A part holds a random share of what one study measured.

Series 1 — technique: RNA Bind-n-Seq; form: RNA; matrix: in vitro; tested at: 365 nM; relative to: no-protein control; reading: higher = stronger binding
Target: RNA binding protein fox-1 homolog 2, RRM domain, GST-SBP tag (RBFOX2, Homo sapiens, UniProt O43251-10, residues 100-194)
Setting: natural RNA segment, single round, ends assumed
Target sequence (chain): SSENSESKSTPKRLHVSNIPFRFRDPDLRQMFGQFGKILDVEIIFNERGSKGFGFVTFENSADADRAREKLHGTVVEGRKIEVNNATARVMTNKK
`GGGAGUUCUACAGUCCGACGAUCUUCCCUUGGGCGCCAAGCAACCUGCCAGGUAGCCAGUCCCUCUGUUACAAGCCUUUGCAUCUGGAUAGGGAAAGGGGUGGAGACAUACAGUCUGCUUUGUGUUGAAACCCUGGAAUUCUCGGGUGCCAA` — result for “RBNS enrichment (R)”: 0.318.
For `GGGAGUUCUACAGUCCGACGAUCUUUGCUUUAUUGAUGCACGGAUGCUUUUGAACAGUAGAGCGAAAUGCUAGACAUGGAGAAUCUGCUCUGUUUGUCCUUUAUACAUUUCUGUAGUUAACAGAACACUGUAAUGGAAUUCUCGGGUGCCAA`, “RBNS enrichment (R)” read 1.07.
`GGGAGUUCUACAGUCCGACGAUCCCAUUCACAUCCCAGGGCUGUGUCCAGACAGCACAAAACGGCAAGGAGAGCCCAAGCCCCAAUGCCAGAAUUCUUCCAAACUCCCUGACUCUUUGAAGUUUUUACUCACCUGGAAUUCUCGGGUGCCAA` — result for “RBNS enrichment (R)”: 0.675.
`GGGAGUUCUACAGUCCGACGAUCUUUCCCUUCCCUUUGACUGUGUGGCCUUUCCCACACAGUUACUAACAGAUAUUUCUGAGUGGUGGAAUCAGGUUUUCUAUGUUCUGCUUUAAAGCCUGGAGUCUGUUAGAUGGAAUUCUCGGGUGCCAA` — result for “RBNS enrichment (R)”: 0.243.
`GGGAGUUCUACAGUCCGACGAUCUGCAGUAUCUCCUAACUUCAGUGCACUCUGCUAGAACAGUACAUUUGCUGUAUUUACUGAAAUCUCUGGCACAGAAGGAAGUGUGUUUGCCUCACACACCAUUUGUCCCAUGGAAUUCUCGGGUGCCAA` — result for “RBNS enrichment (R)”: 0.374.
For `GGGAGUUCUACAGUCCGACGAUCAACACUAUUCUAACACAGGAGAUAAUGUACUUGGUACUGUUUAUUCAACUGGGGGAAAAUAAAACUUUGAGCAUUUCCCUUGGAACUUGAGAUCAGAUCAUAACUCACUUUGGAAUUCUCGGGUGCCAA`, “RBNS enrichment (R)” read 0.241.
`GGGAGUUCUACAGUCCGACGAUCAGGGGUAACAACUAACAAACACCCAAACUGUUUGGAUUGAUUGCUUUAAAAAACAAACCUGGCUCUUACCUUUGAUCUUUUCUUCCCCAGAAAUAGUAAACUUGCAGCUGUGGAAUUCUCGGGUGCCAA` — result for “RBNS enrichment (R)”: 0.292.
For `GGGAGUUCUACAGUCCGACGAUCAAACAAUUGGAGGAGCUGCCCAGGCAGUUUUAUGGCCUCCUGGUUGUGUGCCUUCACACCCGCCUACAGCCCCACCUCACCAUCAAGCGCUGAGCCAAUGCGGGUGUGGCUGGAAUUCUCGGGUGCCAA`, “RBNS enrichment (R)” read 0.256.

Series 2 — technique: protein binding microarray; form: double-stranded DNA, one strand shown; matrix: in vitro; tested at: not given; relative to: not given; reading: higher = stronger binding
Target: Histone acetyltransferase KAT6A, winged helix 2, GST fusion (KAT6A, Homo sapiens, UniProt Q92794, residues 85-181)
Setting: 8-mer, flanks averaged, mean of 2 arrays, mostly near background
Construct (chain): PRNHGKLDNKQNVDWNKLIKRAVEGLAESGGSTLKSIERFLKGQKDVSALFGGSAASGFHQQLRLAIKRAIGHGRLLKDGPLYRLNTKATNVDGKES
With `TCATAAAA` the E-score was 0.0829.
`GGGGATAC` has an E-score of -0.108.
The E-score of `CGACACGC` is reported as 0.0742.
For `ATCACCAA`, the E-score was -0.0539.
`CACCTGCA` has an E-score of 0.103.
With `CTTGTACC` the E-score was -0.172.
`CGCTAAAC` has an E-score of 0.155.
`GGAACACA` has an E-score of -0.145.
`AAAAGGAC` gave an E-score of 0.0356.
The E-score of `ATAGTACG` is reported as -0.192.
`TCGGCCAA` has an E-score of 0.201.
`CTCGATTC` has an E-score of -0.0203.
With `AGGGGTCC` the E-score was -0.187.
With `TGAAACAA` the E-score was 0.114.
`CCCGGCCC` has an E-score of 0.142.
`AGGCAGTA` gave an E-score of -0.0173.
`CAAGCCTA` has an E-score of 0.118.
`ACTGCCTG` has an E-score of 0.152.
With `ACTGGCGG` the E-score was -0.031.
`CGACCTAC` gave an E-score of -0.00811.
For `TCACCCAA`, the E-score was -0.0906.
For `GTTCAAAA`, the E-score was -0.0201.
With `CTAAATCC` the E-score was 0.0327.
With `ATCGATCA` the E-score was -0.0707.
With `ACTTGTTA` the E-score was -0.105.

Series 3 — technique: protein-binding microarray; form: double-stranded DNA, one strand shown; matrix: in vitro; tested at: not given; reading: higher = stronger binding
Target: Protein C-ets-1 (ETS1, Homo sapiens, UniProt P14921, residues 1-441, K379A, full length assumed)
Setting: k-mer, scored over probes, only values ≥0.25
Residues (chain): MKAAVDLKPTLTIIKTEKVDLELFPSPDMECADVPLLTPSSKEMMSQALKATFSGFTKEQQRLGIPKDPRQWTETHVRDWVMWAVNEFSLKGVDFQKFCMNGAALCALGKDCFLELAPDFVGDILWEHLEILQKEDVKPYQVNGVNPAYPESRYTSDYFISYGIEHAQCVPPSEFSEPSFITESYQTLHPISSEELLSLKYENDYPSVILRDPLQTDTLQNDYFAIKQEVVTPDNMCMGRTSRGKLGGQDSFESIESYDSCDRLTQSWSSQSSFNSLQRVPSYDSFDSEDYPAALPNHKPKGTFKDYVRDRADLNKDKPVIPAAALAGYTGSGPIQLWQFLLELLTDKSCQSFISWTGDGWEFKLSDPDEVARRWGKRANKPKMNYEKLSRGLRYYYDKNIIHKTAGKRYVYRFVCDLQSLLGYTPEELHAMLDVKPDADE
The E-score of `CGCTTTAC` is reported as 0.29.
`GGTAACTA` has an E-score of 0.275.
`ATTATGTG` gave an E-score of 0.27.
The E-score of `CCGGAGCA` is reported as 0.297.
For `GACAGGTA`, the E-score was 0.275.
`ACGTTGAA` has an E-score of 0.266.
The E-score of `AATTAACC` is reported as 0.309.
The E-score of `ACATCATA` is reported as 0.287.
The E-score of `CCGGTCCG` is reported as 0.356.
`AGTACCGC` gave an E-score of 0.265.
`ACACAATG` has an E-score of 0.311.
The E-score of `CGCCGGCG` is reported as 0.344.
With `CATGATAC` the E-score was 0.254.
`CGGTTGCA` has an E-score of 0.264.
The E-score of `GTGTCGCA` is reported as 0.27.
For `AATGGTAG`, the E-score was 0.281.
The E-score of `ACCGGCAC` is reported as 0.397.
The E-score of `CGTTACAG` is reported as 0.253.

Series 4 — technique: competition protein-binding microarray; form: double-stranded DNA, one strand shown; matrix: in vitro; tested at: 2 µM; added: Cbf1 competitor, 0.05 µM; reading: higher = stronger binding
Target: Phosphate system positive regulatory protein PHO4, full length, GST-tagged (PHO4, Saccharomyces cerevisiae, UniProt P07270, residues 1-312)
Setting: whole 60-bp probe, lowest competitor level
Construct (chain): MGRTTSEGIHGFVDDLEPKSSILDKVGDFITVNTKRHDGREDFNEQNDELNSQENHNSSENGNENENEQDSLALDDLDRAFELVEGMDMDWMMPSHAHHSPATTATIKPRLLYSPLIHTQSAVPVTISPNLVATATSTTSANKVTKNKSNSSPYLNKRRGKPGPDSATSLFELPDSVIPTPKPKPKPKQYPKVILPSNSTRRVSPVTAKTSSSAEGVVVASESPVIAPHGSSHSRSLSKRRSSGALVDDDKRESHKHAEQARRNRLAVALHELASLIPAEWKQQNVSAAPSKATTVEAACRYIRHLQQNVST
For `GACTTATCGTCTGAAGTCGTGGGACAAATGGATGCCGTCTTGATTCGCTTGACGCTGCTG`, the fluorescence intensity was 7640 a.u.
`CGTCCTAGTGATTGCATGGTGGGTGCCATGAGGAAGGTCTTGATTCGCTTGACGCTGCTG` gave a fluorescence intensity of 7530 a.u.
For `TCTTACTGCCCTTATAATGTGACGCCAACTTTAGCGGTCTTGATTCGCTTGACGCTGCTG`, the fluorescence intensity was 3460 a.u.
With `AGAAACTTCAACTCACATATGCACTATGGATGCCAAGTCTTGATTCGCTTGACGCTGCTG` the fluorescence intensity was 4860 a.u.
`CGGGCATGTTTCCGTCACATGATGGGATGGCGATGTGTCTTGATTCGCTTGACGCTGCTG` has a fluorescence intensity of 10000 a.u.
`AACATCATAAATTAGCACGCAAACGGTAAAGAACAAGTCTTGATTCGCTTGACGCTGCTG` has a fluorescence intensity of 7630 a.u.
For `AGAATCAGGCATTCGCGTGTGACGGGCGTCATTCATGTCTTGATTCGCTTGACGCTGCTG`, the fluorescence intensity was 6410 a.u.
`CTTTCCCGATCTTGTTAAGTGGGTGTAGCACATTTGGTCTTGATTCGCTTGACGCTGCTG` gave a fluorescence intensity of 4600 a.u.
For `AAAGCGGTAATTTGTTCTGTGGGTGCAGATATCTATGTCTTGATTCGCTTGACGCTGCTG`, the fluorescence intensity was 4070 a.u.
The fluorescence intensity of `TGTCGAGGTATCGGCCGCGTGGAACTACCGGGAATTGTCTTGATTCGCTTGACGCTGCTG` is reported as 7400 a.u.
With `TGCGCAACAACTTTTCACGTGTAGTTATGTCTAGAAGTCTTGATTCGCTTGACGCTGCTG` the fluorescence intensity was 12300 a.u.
For `CGTCCTAGCGATTGAGTAGTGGGTGCCATGAGGAAGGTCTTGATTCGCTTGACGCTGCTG`, the fluorescence intensity was 6420 a.u.
`TTAACTGCCCAAGGACACATGCCCTGGGCTGGAACCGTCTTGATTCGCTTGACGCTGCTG` gave a fluorescence intensity of 7810 a.u.
With `TGCGCAACAACTTCACACGTGTTTTTATGTCTAGAAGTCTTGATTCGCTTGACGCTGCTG` the fluorescence intensity was 18100 a.u.
The fluorescence intensity of `ATACCAAATGTCCAGCCCGTGACGGTGCAGCAGGGTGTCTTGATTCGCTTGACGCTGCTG` is reported as 8950 a.u.
The fluorescence intensity of `CTGCTTTCGTTTCGCCAGGTGATTCTGTTGCCATTAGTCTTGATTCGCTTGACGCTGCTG` is reported as 4410 a.u.
`TCCATCTTTTCTAGCACCGTGGTAGCCATATGGAGAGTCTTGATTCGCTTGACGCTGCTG` gave a fluorescence intensity of 7460 a.u.
The fluorescence intensity of `AAAGCGGTAATTTGCCGGGTGGGTGCAGATATCTATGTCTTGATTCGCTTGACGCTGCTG` is reported as 4770 a.u.
With `GTAACTGATGAGTACCATGTGTTTAACGATCTTGAGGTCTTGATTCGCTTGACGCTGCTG` the fluorescence intensity was 10300 a.u.

Some of these lines once more (series 4):
For `AAAGCGGTAATTTGTTCTGTGGGTGCAGATATCTATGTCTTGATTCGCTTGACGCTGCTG`, the fluorescence intensity was 4070 a.u.
`CTTTCCCGATCTTGTTAAGTGGGTGTAGCACATTTGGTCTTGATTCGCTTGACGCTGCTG` gave a fluorescence intensity of 4600 a.u.
`CGGGCATGTTTCCGTCACATGATGGGATGGCGATGTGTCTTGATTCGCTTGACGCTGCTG` has a fluorescence intensity of 10000 a.u.
For `AGAATCAGGCATTCGCGTGTGACGGGCGTCATTCATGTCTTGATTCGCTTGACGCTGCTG`, the fluorescence intensity was 6410 a.u.
The fluorescence intensity of `ATACCAAATGTCCAGCCCGTGACGGTGCAGCAGGGTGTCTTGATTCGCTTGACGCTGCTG` is reported as 8950 a.u.
For `CGTCCTAGCGATTGAGTAGTGGGTGCCATGAGGAAGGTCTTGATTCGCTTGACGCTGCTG`, the fluorescence intensity was 6420 a.u.
`TCCATCTTTTCTAGCACCGTGGTAGCCATATGGAGAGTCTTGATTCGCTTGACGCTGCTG` gave a fluorescence intensity of 7460 a.u.
With `TGCGCAACAACTTTTCACGTGTAGTTATGTCTAGAAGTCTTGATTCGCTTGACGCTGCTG` the fluorescence intensity was 12300 a.u.
`TTAACTGCCCAAGGACACATGCCCTGGGCTGGAACCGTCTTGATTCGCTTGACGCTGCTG` gave a fluorescence intensity of 7810 a.u.
